# Assay results gathered from unrelated publications.
# Parts stem from different laboratories: compare values within a part only. Positions count from the first letter of the parent shown.
# Sequence of UniProt O15294 (whole entry, looked up): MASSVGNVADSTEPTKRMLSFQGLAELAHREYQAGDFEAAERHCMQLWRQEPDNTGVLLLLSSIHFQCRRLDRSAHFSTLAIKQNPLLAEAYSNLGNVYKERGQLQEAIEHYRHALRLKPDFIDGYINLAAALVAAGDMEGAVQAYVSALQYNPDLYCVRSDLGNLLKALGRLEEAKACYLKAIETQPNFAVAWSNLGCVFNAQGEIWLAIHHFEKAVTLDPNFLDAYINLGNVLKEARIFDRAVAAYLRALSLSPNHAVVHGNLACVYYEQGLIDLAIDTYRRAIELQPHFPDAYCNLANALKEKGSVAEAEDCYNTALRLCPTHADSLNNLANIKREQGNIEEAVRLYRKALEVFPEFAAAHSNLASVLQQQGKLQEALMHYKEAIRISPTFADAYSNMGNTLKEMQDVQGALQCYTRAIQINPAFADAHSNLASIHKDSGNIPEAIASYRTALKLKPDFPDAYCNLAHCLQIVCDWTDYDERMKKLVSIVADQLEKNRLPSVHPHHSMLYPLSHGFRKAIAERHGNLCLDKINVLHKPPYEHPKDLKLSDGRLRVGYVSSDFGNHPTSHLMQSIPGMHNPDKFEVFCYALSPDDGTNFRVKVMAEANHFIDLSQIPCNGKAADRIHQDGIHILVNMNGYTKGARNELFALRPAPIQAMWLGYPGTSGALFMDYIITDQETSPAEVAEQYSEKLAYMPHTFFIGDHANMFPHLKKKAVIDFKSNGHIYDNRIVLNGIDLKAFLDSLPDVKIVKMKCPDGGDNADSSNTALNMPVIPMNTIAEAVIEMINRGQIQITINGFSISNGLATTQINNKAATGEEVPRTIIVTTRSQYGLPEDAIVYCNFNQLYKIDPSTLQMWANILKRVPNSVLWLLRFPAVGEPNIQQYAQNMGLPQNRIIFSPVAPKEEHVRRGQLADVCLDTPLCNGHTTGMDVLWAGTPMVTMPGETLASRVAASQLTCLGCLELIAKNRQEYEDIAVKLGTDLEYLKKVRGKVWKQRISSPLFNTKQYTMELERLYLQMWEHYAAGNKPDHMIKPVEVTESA

# Series 1
# Target: Sal-like protein 4, full length isoform A (SALL4, Homo sapiens, UniProt Q9UJQ4, residues 1-1053)
# Sequence of UniProt Q9UJQ4 (whole entry, looked up): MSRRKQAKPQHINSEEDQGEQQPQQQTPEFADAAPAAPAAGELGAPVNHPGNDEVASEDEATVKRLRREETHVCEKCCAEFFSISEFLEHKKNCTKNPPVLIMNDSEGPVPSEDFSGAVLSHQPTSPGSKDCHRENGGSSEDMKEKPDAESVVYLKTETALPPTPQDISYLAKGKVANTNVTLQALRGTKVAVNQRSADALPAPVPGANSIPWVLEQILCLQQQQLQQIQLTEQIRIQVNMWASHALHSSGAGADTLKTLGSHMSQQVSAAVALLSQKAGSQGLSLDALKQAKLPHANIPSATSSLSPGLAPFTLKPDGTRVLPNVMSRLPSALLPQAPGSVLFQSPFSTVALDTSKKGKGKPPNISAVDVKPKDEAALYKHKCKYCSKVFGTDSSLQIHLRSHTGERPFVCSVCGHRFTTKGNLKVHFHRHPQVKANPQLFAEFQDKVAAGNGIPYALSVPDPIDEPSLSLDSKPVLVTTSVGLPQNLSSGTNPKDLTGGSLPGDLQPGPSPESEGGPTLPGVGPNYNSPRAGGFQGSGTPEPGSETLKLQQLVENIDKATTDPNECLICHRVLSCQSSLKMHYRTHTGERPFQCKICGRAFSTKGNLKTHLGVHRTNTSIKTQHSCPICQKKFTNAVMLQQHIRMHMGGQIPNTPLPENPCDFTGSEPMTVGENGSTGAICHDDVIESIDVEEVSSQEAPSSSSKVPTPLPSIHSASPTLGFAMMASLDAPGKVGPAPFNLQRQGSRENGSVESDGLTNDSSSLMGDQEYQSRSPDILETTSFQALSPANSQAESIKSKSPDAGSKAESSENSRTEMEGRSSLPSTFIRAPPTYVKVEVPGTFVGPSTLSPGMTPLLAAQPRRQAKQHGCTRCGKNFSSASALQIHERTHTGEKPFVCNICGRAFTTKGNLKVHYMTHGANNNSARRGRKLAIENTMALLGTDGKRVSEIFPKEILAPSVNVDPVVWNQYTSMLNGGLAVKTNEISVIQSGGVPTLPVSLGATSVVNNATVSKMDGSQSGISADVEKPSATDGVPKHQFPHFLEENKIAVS
# Method: universal PBM
# Molecule type: double-stranded DNA, one strand shown
# Sample: in vitro
# Concentration: 600 nM
# Notes: 8-mer, flanks averaged, mean of replicates
# Direction: higher = stronger binding
Oligonucleotide,E-score
AATACCAG,0.0836
CTTGAAAG,0.00812
GGCGTCGA,-0.223
AATTCAAT,0.263
CGCCCAGC,-0.273
AACGATAT,0.31
GAAAGGTA,0.127
AGTAAGCG,-0.114

# Series 2
# Substitution: C25Y
# Target: ABI1, truncated, D143A, DHFR fusion (Arabidopsis thaliana)
# Method: DHFR PCA, deep sequencing
# Sample: yeast
# Notes: methotrexate growth selection, single substitutions
# Reference: wild-type fitted maximum
# Direction: higher = stronger binding
# Starting sequence: PYL1, truncated, DHFR fusion (Arabidopsis thaliana); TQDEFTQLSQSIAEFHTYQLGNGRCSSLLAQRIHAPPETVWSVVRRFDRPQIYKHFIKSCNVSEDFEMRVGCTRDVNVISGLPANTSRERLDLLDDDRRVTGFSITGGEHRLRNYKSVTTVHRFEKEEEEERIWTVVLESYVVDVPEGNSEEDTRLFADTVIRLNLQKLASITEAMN
with,relative binding score
(+)-ABA 1.4 µM,-7.35%
(+)-ABA 0.0091 µM,0.939%
(+)-ABA 0 µM,-2.63%
(+)-ABA 710 µM,51.5%
(+)-ABA 17 µM,-6.09%
(+)-ABA 0.032 µM,-3.39%

# Series 3
# Target: Sox-I, HMG box (Salpingoeca helianthica)
# Method: Spec-seq
# Molecule type: double-stranded DNA, one strand shown
# Sample: in vitro
# Concentration: not given
# Notes: whole probe, mean of replicates
# Reference: not given
# Direction: lower = stronger binding
# All sequences stand within: GAGTCGTCTCGTCAGCAC … CCGTAGAGCACTCAGGTC
# Residues (chain): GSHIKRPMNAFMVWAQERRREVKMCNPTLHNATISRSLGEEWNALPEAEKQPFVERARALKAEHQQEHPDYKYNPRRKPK
Oligonucleotide,relative binding energy
CATCAAA,0.524 ln ratio
CATCACA,0.587 ln ratio
AGTCGTT,0.235 ln ratio
CATAGGG,-0.0376 ln ratio
ATGTGTT,-0.0522 ln ratio
CCTAGTT,0.0651 ln ratio
CATCTCC,1.11 ln ratio
CATCGGT,0.981 ln ratio

# Mixed results
Sequence,target,assay,test system,setting,scale,measurement,result
YRHPPWDHHLDHHGR,"UDP-N-acetylglucosamine--peptide N-acetylglucosaminyltransferase 110 kDa subunit (OGT, Homo sapiens, UniProt O15294)","binding, phage display NGS",peptide,panning round 2,reference: input library,minimum log2 enrichment ratio,2.46

# For quick reference, copied from above (series 2):
with,relative binding score
(+)-ABA 0 µM,-2.63%
(+)-ABA 710 µM,51.5%
(+)-ABA 17 µM,-6.09%
(+)-ABA 0.032 µM,-3.39%
